# Experimental data of several laboratories.
# A part holds a random share of what one study measured.

# Block 1
# Target: Histone acetyltransferase KAT6A, winged helix 2, GST fusion (KAT6A, Homo sapiens, UniProt Q92794, residues 85-181)
# Method: protein binding microarray
# Form: double-stranded DNA, one strand shown
# Matrix: in vitro
# Concentration: not given
# Setting: 8-mer, flanks averaged, mean of 2 arrays, mostly near background
# Relative to: not given
# Direction: higher = stronger binding
# Construct (chain): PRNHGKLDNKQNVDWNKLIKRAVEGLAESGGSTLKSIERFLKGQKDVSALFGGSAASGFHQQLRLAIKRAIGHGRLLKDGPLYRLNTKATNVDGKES
Strand,E-score
ATAGAACA,-0.105
ACGGATGC,0.0506
AGGCGCAA,0.154
CACGAGTG,-0.0458

# Block 2
# Target: Interferon regulatory factor 5, full length, phosphomimetic (IRF5, Homo sapiens, UniProt Q13568-2, residues 1-514, S451D/S453D/S456D/S462D)
# Method: protein-binding microarray
# Form: double-stranded DNA, one strand shown
# Matrix: in vitro
# Concentration: 940 nM top
# Setting: 60-bp whole probe
# Added: salmon DNA 0.4 mg/ml
# Relative to: random background probes
# Direction: higher = stronger binding
Strand,fitted relative affinity [z-score]
GCCTAGCACTTAGAAGTGGGGACTGGATTAGTGCTAGTCTTGATTCGCTTGACGCTGCTG,-0.0192
GCCTAGCACATCTCACTCTAATCTCACTCTGTGCTAGTCTTGATTCGCTTGACGCTGCTG,2.13
GCCTAGCACTTAGATTTCGGGTTTCGAGTAGTGCTAGTCTTGATTCGCTTGACGCTGCTG,2.86

# Block 3
# Target: Fragile X messenger ribonucleoprotein 1, C-terminal low-complexity region (Fmr1, Mus musculus, UniProt P35922)
# Method: RNA Bind-n-Seq
# Form: RNA
# Matrix: in vitro
# Concentration: 200 nM
# Setting: whole 134-nt RNA, ends assumed
# Added: 150 mM KCl
# Relative to: input library
# Direction: higher = stronger binding
Strand,log2 enrichment
GGGAGUUCUACAGUCCGACGAUCUAACUUUAGAGGAGGAUCUGAUGGAUAUGGCAGUGGACGUGGAUUUGGGGAUGGCUAUAAUGGGUAUGGAGGAGGACCUUGAGGUGGCAAUGGAAUUCUCGGGUGUCAAGG,0.133
GGGAGUUCUACAGUCCGACGAUCACCAUGCAGGUGGGCAUCUUUGGGAAGUGGGGCAAGGGGGGGAUAGGGAGGGGGGUAACACUGUGGGAACAGGUGGUCCCAGGUCGUUUCUGGAAUUCUCGGGUGUCAAGG,0.785
GGGAGUUCUACAGUCCGACGAUCUCCUGUGCUACACAUCGUAUGUACCGAAUCGGUUUUUGGGGUUUUUGGGGUUUUUGGGGAAAGUAUUAUGUUACGCCGUUCGGAUCUGCAUGGAAUUCUCGGGUGUCAAGG,0.253

# Single results of other studies
Substance,target,test,test system,setting,scale,measurement,value
"PhoQ, residues 284 288 289 292 302 303 TLSLKA","PhoP, residues 12 14 15 18 19 GQAIL (Escherichia coli, UniProt P23836)","Sort-seq, measured: YFP reporter",E. coli,"PhoQ-PhoP variant library, added: 10 µM Mg2+","relative to: high Mg2+ state, higher = stronger signaling",fold induction,1.36

# Repeated from above (block 1):
Strand,E-score
CACGAGTG,-0.0458
ACGGATGC,0.0506
